Experimental data from different studies.
Numbered parts are unrelated; each lists some results of a single study. Positions count from the first letter of the parent shown.

Sample 1
Target: CCNE1, cyclin fold, Cln2 fusion (human)
Method: yeast growth competition, sequencing
Sample: yeast
Setting: weak parent motif
Reference: not given
Direction: higher = stronger binding
Parent: CDC42EP1 docking peptide (human); SLVVGKLSFDSSP
Change	normalised enrichment score
SLVVGKLAFDSSP [S8A]	0.156
SLVVGKLSFASSP [D10A]	0.296
SLVVGKLSFDSSA [P13A]	0.0136
SLVVGKLSFDSAP [S12A]	0.177
SLAVGKLSFDSSP [V3A]	0.157
SAVVGKLSFDSSP [L2A]	0.502
SLVVAKLSFDSSP [G5A]	0.161

Sample 2
Target: CREBRF, bZIP domain (human)
Method: DHFR protein complementation
Sample: yeast
Setting: single substitutions, most at no-binding floor
Reference: wild-type JUN-FOS pair
Direction: higher = stronger binding
Parent: JUN, bZIP domain (human); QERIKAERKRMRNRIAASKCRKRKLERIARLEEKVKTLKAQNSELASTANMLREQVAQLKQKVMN; partner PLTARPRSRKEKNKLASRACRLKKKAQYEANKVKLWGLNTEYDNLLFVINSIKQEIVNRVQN
Change	binding fitness
A49D	-1.49 natural log
S43F	-1.46 natural log
A46C	-1.09 natural log
L45M	-1.42 natural log
E32M	-1.41 natural log
A40Y	-1.62 natural log
L59T	-1.44 natural log
E44K	-1.51 natural log
S43P	-1.5 natural log
A40M	-1.41 natural log
M51S	-1.44 natural log
E33P	-1.54 natural log
M51V	-1.52 natural log
T48K	-1.4 natural log
K36R	-1.45 natural log
V56Q	-1.51 natural log
E54V	-1.38 natural log
K39V	-1.48 natural log
M51R	-1.44 natural log

Sample 3
Target: ABI1, truncated, D143A, DHFR fusion (Arabidopsis thaliana)
Method: DHFR PCA, deep sequencing
Sample: yeast
Setting: methotrexate growth selection, single substitutions
Together with: (+)-ABA 0 µM
Reference: wild-type fitted maximum
Direction: higher = stronger binding
Parent: PYL1, truncated, DHFR fusion (Arabidopsis thaliana); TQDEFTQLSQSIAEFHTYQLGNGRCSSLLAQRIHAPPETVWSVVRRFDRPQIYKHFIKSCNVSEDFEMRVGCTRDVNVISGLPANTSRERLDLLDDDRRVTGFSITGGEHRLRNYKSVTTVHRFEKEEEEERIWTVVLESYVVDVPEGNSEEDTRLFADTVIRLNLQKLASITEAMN
Change	relative binding score
T6W	27.9%
N85V	60%
Q51P	-5.35%
A170H	-9.47%
P36Y	3.09%
T106M	40.9%
T73R	1.54%
Q167N	4%
L94V	2.43%
F124R	3%
H55L	15.5%
G23E	1.52%
I52K	20.3%

Sample 4
Target: Sal-like protein 4, full length isoform B (SALL4, Homo sapiens, UniProt Q9UJQ4-2, residues 1-616)
Method: universal PBM
Form: double-stranded DNA, one strand shown
Sample: in vitro
Concentration: not given
Setting: 8-mer, flanks averaged, mean of replicates
Direction: higher = stronger binding
Residues (chain): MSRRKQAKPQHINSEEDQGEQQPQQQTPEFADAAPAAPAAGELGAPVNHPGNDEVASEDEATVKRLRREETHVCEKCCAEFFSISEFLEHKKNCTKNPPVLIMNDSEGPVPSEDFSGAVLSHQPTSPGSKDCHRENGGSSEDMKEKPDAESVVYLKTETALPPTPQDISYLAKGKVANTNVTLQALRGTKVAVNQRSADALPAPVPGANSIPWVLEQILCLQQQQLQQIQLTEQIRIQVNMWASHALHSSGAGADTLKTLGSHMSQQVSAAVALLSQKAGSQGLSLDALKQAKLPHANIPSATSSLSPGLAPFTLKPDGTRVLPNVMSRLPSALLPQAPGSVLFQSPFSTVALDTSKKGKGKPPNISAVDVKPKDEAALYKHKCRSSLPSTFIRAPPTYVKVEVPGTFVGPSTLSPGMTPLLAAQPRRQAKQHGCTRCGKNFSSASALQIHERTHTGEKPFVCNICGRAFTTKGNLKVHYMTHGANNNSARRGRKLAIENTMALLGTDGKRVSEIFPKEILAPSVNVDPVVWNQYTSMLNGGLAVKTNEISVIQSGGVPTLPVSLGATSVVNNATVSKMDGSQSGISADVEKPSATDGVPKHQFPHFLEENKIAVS
Oligonucleotide	E-score
CACGTTGA	-0.102
ATGAAATG	0.174
ATTCCTGG	-0.0587
GAGCGTGC	-0.175
GCGTGGCC	-0.332
ATTCTTCA	0.115
CAGTGCAG	-0.252
AGACAAAG	0.0496
AAATAACA	0.326
CCGGCGTA	-0.366
CCTCACCC	-0.194
CCTTGCAA	-0.11
ATTGGTGG	0.0747
AGACTGAA	-0.00069
GGAATTTA	0.159
ATTGAAAC	0.266
GGAAGCAA	-0.0407
ACCCCCTG	-0.16
GAGTACGA	0.0269
GTCTCCGA	-0.158
GTCGGTCA	0.00428
CTGGGCAA	-0.092
ACGATGCA	-0.00137
GACCCAAC	-0.168
AATCAATT	0.253

Mixed results
Molecule	target	test	test system	conditions	how to read	endpoint	result
PhoQ, residues 284 288 289 292 302 303 SASVAL	PhoP, residues 12 14 15 18 19 SQCLL (Escherichia coli, UniProt P23836)	Sort-seq, item: YFP reporter	E. coli	PhoQ-PhoP variant library, together with: 10 µM Mg2+	reference: high Mg2+ state, higher = stronger signaling	fold induction	20
